Experimental data pooled from the literature.
Each line is one published result; not all experiments were run side by side.
Organism: Acinetobacter baumannii

| Compound | test | system | setting | scale | MIC |
| --- | --- | --- | --- | --- | --- |
| NC[C@H]1O[C@H](O[C@H]2[C@H](O)[C@@H](O[C@H]3O[C@H](CO)[C@@H](O)[C@H](N)[C@H]3O)[C@H](N)C[C@@H]2N)[C@H](N)C[C@@H]1O | – | carbapenem-resistant clinical isolate | – | – | > 8 mg/L |
| CC(=O)N[C@@H](CCCCN)C(=O)N[C@@H](CC(C)C)C(=O)N[C@@H](CC(C)C)C(=O)N[C@@H](CCCCN)C(=O)N[C@@H](CC(C)C)C(=O)N[C@@H](CC(C)C)C(=O)N[C@@H](CCCCN)C(=O)N[C@@H](CCCCN)C(=O)N1CCC[C@H]1C(=O)N[C@@H](CC(C)C)C(=O)N[C@@H](CCCCN)C(=O)N[C@@H](CC(C)C)C(N)=O | broth microdilution | ATCC 17978 | 18 h, 37 °C, compound alone | – | > 80 µM |
| CC(C)[C@H](NC(=O)[C@H](C)N)C(=O)N[C@@H](C)C(=O)N[C@H](C(=O)N[C@H](C(=O)NCC(=O)N[C@@H](CCC(N)=O)C(=O)N[C@@H](C)C(=O)N[C@@H](C)C(=O)N[C@H](C(=O)N[C@H](C(=O)N[C@H](C(=O)N[C@@H](CCCCN)C(N)=O)C(C)C)C(C)C)[C@@H](C)O)C(C)C)C(C)C | – | KCCM 40203, Mueller-Hinton broth | 16 h, 37 °C | growth inhibition over 99% | > 64 µM |
| CC[C@H](C)[C@H](NC(=O)[C@H](CC(C)C)NC(=O)[C@H](CCCNC(=N)N)NC(=O)[C@@H](N)CCCNC(=N)N)C(=O)N[C@@H](CCCNC(=N)N)C(=O)N[C@@H](CCCCN)C(=O)N[C@@H](CC(C)C)C(=O)N[C@@H](CCCCN)C(=O)NCC(=O)N[C@@H](CC(C)C)C(=O)N[C@@H](CCCCN)C(=O)N[C@@H](CCCCN)C(=O)N[C@@H](Cc1ccc(O)cc1)C(=O)N[C@@H](CC(C)C)C(=O)N[C@@H](Cc1ccc(O)cc1)C(=O)N[C@@H](Cc1ccccc1)C(=O)N[C@@H](CCCCN)C(=O)N[C@@H](CC(C)C)C(=O)N[C@@H](CCC(N)=O)C(=O)N[C@@H](CC(C)C)C(=O)N[C@@H](CC(C)C)C(=O)N[C@@H](CCCCN)C(=O)N[C@@H](CCCCN)C(N)=O | – | KCCM 40203, Mueller-Hinton broth | 24 h | – | 2 µM |
| CC[C@H](C)[C@H](NC(=O)CN)C(=O)NCC(=O)N[C@@H](C)C(=O)N[C@H](C(=O)N[C@@H](CC(C)C)C(=O)N[C@@H](CCCCN)C(=O)N[C@H](C(=O)N[C@@H](CC(C)C)C(=O)N[C@H](C(=O)N[C@H](C(=O)NCC(=O)N[C@@H](CC(C)C)C(=O)N1CCC[C@H]1C(=O)N[C@@H](C)C(=O)N[C@@H](CC(C)C)C(=O)N[C@H](C(=O)N[C@@H](CO)C(=O)N[C@@H](Cc1c[nH]c2ccccc12)C(=O)N[C@H](C(=O)N[C@@H](CCCCN)C(=O)N[C@@H](CCCNC(=N)N)C(=O)N[C@@H](CCCCN)C(=O)N[C@@H](CCCNC(=N)N)C(=O)N[C@@H](CCC(N)=O)C(=O)N[C@@H](CCC(N)=O)C(N)=O)[C@@H](C)CC)[C@@H](C)CC)[C@@H](C)O)[C@@H](C)O)C(C)C)C(C)C | – | CCARM 12005 carbapenem-resistant | – | – | 8 µM |
| CCCCCC(=O)N[C@@H](CCCNC(=N)N)C(=O)N[C@@H](CCCNC(=N)N)C(=O)N[C@@H](CCCNC(=N)N)C(=O)N[C@@H](CCCNC(=N)N)C(=O)N[C@H](C(=O)N[C@@H](CC(C)C)C(=O)N[C@H](C(=O)N[C@@H](CCCNC(=N)N)C(=O)N[C@@H](CCCNC(=N)N)C(=O)N[C@H](C(=O)N[C@@H](CC(C)C)C(=O)N[C@@H](CCCNC(=N)N)C(=O)N[C@@H](CC(C)C)C(=O)N[C@@H](CCCNC(=N)N)C(=O)N[C@@H](CO)C(=O)N[C@@H](CO)C(=O)N[C@@H](C)C(=O)N[C@@H](Cc1ccc(O)cc1)C(N)=O)C(C)C)[C@@H](C)CC)[C@@H](C)CC | broth microdilution | ATCC 17978 | highest value reported | – | 4 µM |
| NCCCC1CN(c2ccc3c(n2)NC(=O)CO3)C(=O)O1 (stereo not shown) | – | ATCC 19606 | – | – | 160 mg/L |
| CC[C@H](C)[C@H](NC(=O)[C@H](CC(C)C)NC(=O)[C@H](CCCNC(=N)N)NC(=O)[C@@H](N)CCCNC(=N)N)C(=O)N[C@@H](CCCNC(=N)N)C(=O)N[C@H](C(=O)N[C@@H](CC(C)C)C(=O)N[C@H](C(=O)NCC(=O)N1CCC[C@H]1C(=O)N[C@H](C(=O)N[C@H](C(=O)N[C@@H](Cc1ccc(O)cc1)C(=O)N[C@@H](CC(C)C)C(=O)N[C@@H](Cc1ccc(O)cc1)C(=O)N[C@@H](Cc1ccccc1)C(=O)N[C@@H](CCCCN)C(=O)N[C@@H](CC(C)C)C(=O)N[C@@H](CCC(N)=O)C(=O)N[C@@H](CC(C)C)C(=O)N[C@@H](CC(C)C)C(=O)N[C@@H](CCCCN)C(=O)N[C@@H](CCCCN)C(N)=O)[C@@H](C)CC)[C@@H](C)CC)[C@@H](C)O)[C@@H](C)O | – | ATCC BAA1605, Mueller-Hinton broth | 24 h | – | 32 µM |
| CC[C@H](C)[C@H](NC(=O)CNC(=O)[C@H](CC(=O)O)NC(=O)[C@H](CCCNC(=N)N)NC(=O)[C@@H](NC(=O)[C@H](CC(N)=O)NC(=O)[C@H](C)NC(=O)CNC(=O)[C@@H](NC(=O)[C@H](CCCCN)NC(=O)[C@H](CCC(=O)O)NC(=O)[C@@H](NC(=O)[C@H](CCCCN)NC(=O)[C@H](CCCCN)NC(=O)[C@H](Cc1ccccc1)NC(=O)[C@@H](NC(=O)[C@H](CCCCN)NC(=O)[C@H](Cc1c[nH]c2ccccc12)NC(=O)[C@@H](N)CCCNC(=N)N)[C@@H](C)CC)[C@@H](C)CC)C(C)C)C(C)C)C(=O)N[C@H](C(=O)N[C@@H](CCCCN)C(=O)N[C@@H](C)C(=O)NCC(=O)N1CCC[C@H]1C(=O)N[C@@H](C)C(=O)N[C@H](C(=O)N[C@@H](C)C(=O)N[C@H](C(=O)N[C@H](C(=O)NCC(=O)N[C@@H](CCC(N)=O)C(=O)N[C@@H](C)C(=O)N[C@@H](C)C(=O)N[C@H](C(=O)N[C@H](C(=O)N[C@H](C(=O)N[C@@H](CCCCN)C(N)=O)C(C)C)C(C)C)[C@@H](C)O)C(C)C)C(C)C)C(C)C)[C@@H](C)CC | – | KCCM 40203, Mueller-Hinton broth | 16 h, 37 °C | growth inhibition over 99% | 4 µM |
| C[C@@H](O)[C@H]1C(=O)N2C(C(=O)O)=C(S[C@@H]3CN[C@H](C(=O)N(C)C)C3)[C@H](C)[C@H]12 | broth microdilution | – | carbapenem-resistant clinical isolate | – | 32 mg/L |

Excerpt of the above:
| Compound | test | system | setting | scale | MIC |
| --- | --- | --- | --- | --- | --- |
| NC[C@H]1O[C@H](O[C@H]2[C@H](O)[C@@H](O[C@H]3O[C@H](CO)[C@@H](O)[C@H](N)[C@H]3O)[C@H](N)C[C@@H]2N)[C@H](N)C[C@@H]1O | – | carbapenem-resistant clinical isolate | – | – | > 8 mg/L |
